Experimental data pooled from the literature.
Lines come from different studies, so protocols differ. “And” joins repeats or separate records; there may be more than shown. ± gives the spread as reported. Values after ≈ are worked out from the molar mass of the structure shown.

| SMILES | organism | assay | test system | conditions | scale | quantity | result |
| --- | --- | --- | --- | --- | --- | --- | --- |
| O=c1oc2c(O)c(O)cc3c(=O)oc4c(O)c(O)cc1c4c23 | Streptococcus mutans | – | – | MIC, first 15 min, together with: glucose 1% | – | initial rate of glycolytic pH drop | 0.04 pH units/min |
| COc1cc(C)c(NC(=O)CN(C)C)cc1Nc1nc(Nc2cccc(F)c2C(N)=O)c2cc[nH]c2n1 | Trypanosoma brucei | – | – | unit not given | reference: pEC50 T. brucei minus pTC50 HepG2 | selectivity | > 1.8 |
| C[C@@]12COCO[C@@H]1CC[C@]1(C)[C@@H]2CC[C@@H]2CN(Cc3ccc(F)cc3)[C@@H](C3=CCOC3=O)C[C@H]21 | Human coronavirus 229E | cytopathic effect | MRC5 | 25 µM, corrected for cytotoxicity | – | inhibition | 36.3% |
| CC(C)n1ncc2c(C(=O)NCC3(C)CNC3)cc(C3CC3)nc21 | Enterovirus A71 | viral replication | Tainan/4643/1998 | 30000 nM | – | plaque reduction | 100% |
| C[C@@H]1O[C@@H](OC[C@H]2O[C@@H](Oc3c(-c4ccc(O)c(O)c4)oc4cc(O)cc(O)c4c3=O)[C@H](O)[C@@H](O)[C@@H]2O)[C@H](O)[C@H](O)[C@H]1O | Streptococcus mutans | – | – | MIC, first 15 min, together with: glucose 1% | – | initial rate of glycolytic pH drop | 0.037 pH units/min |
| OB(O)c1csc2ccccc12 | Listeria monocytogenes | – | – | 100 µM, 10 h | reference: untreated | growth | 51.8% and 71.2% and 73.5% and 68.3% |
| CCn1c(=O)c(-c2cc[nH]n2)cc2c(C)nc(N)nc21 | Enterovirus A71 | viral replication, plaque | – | 4 µM | – | plaque formation decrease | ~90% |
| CC(=O)OC[C@@]1(C)[C@H]2CC[C@@H]3CN(C(C)C)[C@@H](C4=CCOC4=O)C[C@H]3[C@]2(C)CC[C@H]1OC(C)=O | Human coronavirus 229E | cytopathic effect | MRC5 | 25 µM, corrected for cytotoxicity | – | inhibition | 82.2% |
| COc1cccc(N2CCN(S(=O)(=O)c3ccc(-n4cnnn4)cc3)CC2)c1 | Mus musculus | gene silencing, high-content imaging | LDR reporter GFP cells | retest run 2 | – | maximal activity | 208% |
| N=C(N)c1ccc(OCc2ccccc2COc2ccc(C(=N)N)cc2)cc1 | Escherichia coli | outer membrane permeabilization | BW25113 | 60 min, together with: NPN 0.01 mM | – | concentration for maximal NPN uptake | 3.1 µg/mL |
| COc1cc(C=O)ccc1OC1=C(Cl)C(=O)c2ccccc2C1=O | Aspergillus niger | – | ITCC 7787 | 10 µg/mL | – | zone of inhibition | 18 mm |
| CC1(C)OC[C@@]2(C)[C@H]3CC[C@@H]4CN(Cc5ccc(F)c(Cl)c5)[C@@H](C5=CCOC5=O)C[C@H]4[C@]3(C)CC[C@H]2O1 | Human coronavirus 229E | cytopathic effect | MRC5 | 25 µM, corrected for cytotoxicity | – | inhibition | 20.7% |
| O=[N+]([O-])c1ccc(-c2ccc(/C=N/Nc3nc(N4CCCCC4)nc(N4CCCCC4)n3)o2)cc1 | Mus musculus | gene silencing, high-content imaging | LDR reporter GFP cells | retest run 2 | – | maximal activity | 26% |
| O=C1OC[C@H]2OC(O)[C@H](O)[C@@H](O)[C@@H]2OC(=O)c2cc(O)c(O)c(O)c2-c2c(O)c(O)c3oc(=O)c4c(c(O)c(O)c5oc(=O)c2c3c54)-c2c1cc(O)c(O)c2O (mixture of isomers) | Streptococcus mutans | broth microdilution | – | – | – | MBC/MIC ratio | 2 |
| Cc1ccc(NC(=O)N2Cc3[nH]cnc3C[C@H]2c2nc(-c3ccc4c(c3)OCO4)no2)cc1 | Caenorhabditis elegans | – | N2 | 12.5 µM | – | mean lifespan | 22.5 days |
| OC(Cn1cncn1)(Cn1cncn1)c1ccc(F)cc1F | Aspergillus niger | – | ITCC 7787 | 10 µg/mL | – | zone of inhibition | 23 mm |
| CC1(C)S[C@@H]2[C@H](NC(=O)[C@H](N)c3ccccc3)C(=O)N2[C@H]1C(=O)O | Pseudomonas aeruginosa | – | clinical isolate RKI-No_482/15 | – | – | MIC | > 16 µg/mL |
| CC(C)C[C@@H](C=O)NC(=O)[C@H](CC(C)C)NC(=O)[C@H](CC(C)C)NC(=O)OCc1ccccc1 | Mus musculus | gene silencing, high-content imaging | LDR reporter GFP cells | 30 h, retest, mean of two runs | – | Emax | 135% |
| CC(C)COC(=O)c1ccc2c(c1)/C(=C/Nc1ccc(S(N)(=O)=O)cc1)C(=O)N2 | Trypanosoma brucei | – | – | unit not given | reference: pEC50 T. brucei minus pTC50 HepG2 | selectivity | 2.2 |
| CC(=O)Oc1ccccc1C(=O)Nc1ncc([N+](=O)[O-])s1 | Cryptosporidium parvum | – | HCT-8 | 9 x EC90, 0 h | reference: DMSO control | parasite number | 93.3% and 101% and 109% and 96.8% |
| C[n+]1cc(NC(=O)c2ccc3ccc4ccc(C(=O)Nc5cc6ccccc6[n+](C)c5)nc4c3n2)cc2ccccc21 | Trypanosoma brucei | RNA-seq | Lister 427 bloodstream form | 2 × EC50, 4 h, log2 FC 1, FDR 0.05 | reference: untreated | downregulated genes | 155 genes |
| N=C(N)c1ccc(OCc2ccc(-c3ccccc3)cc2COc2ccc(C(=N)N)cc2)cc1 | Escherichia coli | checkerboard | 552100 clinical isolate | unit not given, together with: rifampicin | lower = stronger synergy | FICI | 0.047 |
| COc1ccccc1OCC(=O)N/N=C/C=C/c1ccc([N+](=O)[O-])o1 | Mus musculus | gene silencing, high-content imaging | LDR reporter GFP cells | retest run 2 | – | maximal activity | 225% |
| CS(=O)(=O)CCNCc1cc(-c2cc3c(Nc4ccc(OCc5cccc(F)c5)c(Cl)c4)ncnc3s2)cs1 | Trypanosoma brucei | – | – | unit not given | reference: pEC50 T. brucei minus pTC50 HepG2 | selectivity | > 2 |

| SMILES | organism | assay | test system | conditions | scale | quantity | result |
| --- | --- | --- | --- | --- | --- | --- | --- |
| Cc1nc2[nH]c(=O)n(O)c(=O)c2s1 | Digitaria adscendens | – | – | 1500 g/ha, 21 days, post-emergence, glasshouse pot | – | growth inhibition | 19.8% |
| CC(=Nc1ccc(N=Cc2cnccn2)cc1)N(C)C | Necator americanus | – | infected hamsters, small intestine | oral, 50 mg/kg single, 6 h | – | worm count | 0.3 ± 0.3 |
| O=c1[nH]c(CCl)nc2scc(-c3ccc(C(F)(F)F)cc3)c12 | Trypanosoma brucei brucei | – | 449 Lister 427 bloodstream form | 24 h | reference: EC50 HEK293 over EC50 T. brucei | selectivity index | 1.8 ± 0.5 |
| CO[C@H]1/C=C/O[C@@]2(C)Oc3c(C)c(O)c4c(c3C2=O)C2=NC3(CCN(CC(C)C)CC3)NC2=C(NC(=O)/C(C)=C\C=C\[C@H](C)[C@H](O)[C@@H](C)[C@@H](O)[C@@H](C)[C@H](OC(C)=O)[C@@H]1C)C4=O | Mycobacteroides abscessus | bacterial growth | subsp. massiliense clinical isolate | slow grower | – | IC90 | 682 nM |
| COc1ccc(CN2C[C@H]3CC[C@@H]4[C@](C)(CO)[C@H](O)CC[C@@]4(C)[C@@H]3C[C@@H]2C2=CCOC2=O)cc1 | Human coronavirus 229E | cytopathic effect | MRC5 | 25 µM, corrected for cytotoxicity | – | inhibition | 3.8% |
| Cc1ccc(NC(=O)c2c(C)nc3sc(C(=O)NC4CCCC4)c(N)c3c2-c2ccco2)c(C)c1 | Mus musculus | gene silencing, high-content imaging | LDR reporter GFP cells | retest run 1 | – | maximal activity | 38% |
| CN1CCN(Cc2ccc(-c3cc4ncnc(Nc5ccc(OCc6cccc(F)c6)c(Cl)c5)c4s3)o2)CC1 | Trypanosoma brucei | – | – | unit not given | reference: pEC50 T. brucei minus pTC50 HepG2 | selectivity | 0.9 |
| CN[C@H](CC(C)C)C(=O)N[C@H]1C(=O)N[C@@H](CC(N)=O)C(=O)N[C@H]2C(=O)N[C@H]3C(=O)N[C@H](C(=O)N[C@H](C(=O)O)c4cc(O)cc(O)c4-c4cc3ccc4O)[C@H](O)c3ccc(c(Cl)c3)Oc3cc2cc(c3O[C@@H]2O[C@H](CO)[C@@H](O)[C@H](O)[C@H]2O[C@H]2C[C@](C)(N)[C@H](O)[C@H](C)O2)Oc2ccc(cc2Cl)[C@H]1O | Streptococcus pneumoniae | – | penicillin-resistant, 10 isolates | pH 8.5 | – | MIC50 | 0.5 µg/mL (≈ 0.345 µM) |
| [H]/N=C(\N/C(=N/[H])NCCCCCCNC(=N)NC(=N)Nc1ccc(Cl)cc1)Nc1ccc(Cl)cc1 | Streptococcus mutans | – | BHI agar | 500 µg/disc | – | zone of inhibition | 18.5 ± 2 mm |
| CCN(CC)c1ccc2c(c1)oc(=O)c1c(Cl)cc(=O)oc12 | Mus musculus | gene silencing, high-content imaging | LDR reporter GFP cells | retest run 1 | – | maximal activity | 56% |
| CN1CCN(c2ncc(-c3ccc4nncc(Nc5cnccn5)c4c3)cn2)CC1 | Trypanosoma brucei | cell growth | – | – | – | EC50 | 3500 ± 510 nM |
| COC(=O)[C@H](Cc1ccc(O)cc1)NCc1cc2ccccc2nc1SC | Pseudomonas aeruginosa | – | – | 32 µg/mL, together with: pentamidine 50 µM | reference: control | growth | 91.3% |
| C[C@@H](Oc1cc(-n2cnc3ccc(OCC4CCN(C)CC4)cc32)sc1C(N)=O)c1ccccc1Cl | Trypanosoma brucei | – | – | unit not given | reference: pEC50 T. brucei minus pTC50 HepG2 | selectivity | 2.7 |
| COc1ccc(CN2C[C@H]3CC[C@@H]4[C@]5(C)COC(C)(C)O[C@@H]5CC[C@@]4(C)[C@@H]3C[C@@H]2C2=CCOC2=O)cc1 | Human coronavirus 229E | cytopathic effect | MRC5 | 25 µM, corrected for cytotoxicity | – | inhibition | 62.2% |
| O=C(Nc1ccc(Oc2ccc3nc(NC(=O)c4ccccc4)[nH]c3c2)cc1)Nc1cc(C(F)(F)F)ccc1F | Trypanosoma brucei | – | – | unit not given | reference: pEC50 T. brucei minus pTC50 HepG2 | selectivity | 0.5 |
| COc1cc2c(cc1NC(=O)c1ccc(C(C)(C)C)cc1)CCCCC2 | West Nile virus | viral replication | HEK293 | – | – | EC90 | 600 nM |
| CC(=O)OC[C@@]1(C)[C@H]2CC[C@@H]3CN(Cc4ccc(C)cc4)[C@@H](C4=CCOC4=O)C[C@H]3[C@]2(C)CC[C@H]1OC(C)=O | Human coronavirus 229E | cytopathic effect | MRC5 | 25 µM, corrected for cytotoxicity | – | inhibition | 90.5% |
| O=C(O)CCCCCN1C(=O)/C(=C\c2ccc(-c3ccc(Cl)cc3)o2)SC1=S | Mus musculus | gene silencing, high-content imaging | LDR reporter GFP cells | retest run 1 | – | maximal activity | 51% |
| CC1=C(C(=O)Nc2ccc3[nH]ncc3c2)C(c2ccc(F)cc2)NC(c2ccc(C(F)(F)F)nc2)=N1 (stereo not drawn) | Trypanosoma brucei | – | – | unit not given | reference: pEC50 T. brucei minus pTC50 HepG2 | selectivity | > 1.3 |
| Br.CN(C)c1nc(=Nc2cccc(Cl)c2)ss1 | Mus musculus | gene silencing, high-content imaging | LDR reporter GFP cells | retest run 2 | – | maximal activity | 71% |
| COC(=O)[C@@H](NCc1cc2ccccc2nc1OCc1ccccc1)C(C)C | Pseudomonas aeruginosa | – | – | 128 µg/mL, without pentamidine | reference: control | growth | 97.1% |
| Nc1nc(-c2ccccc2)nc2[nH]nc(Nc3ccc(C(F)(F)F)cc3)c12 | coxsackievirus B3 | – | 31-1-93, NMRI mice, CVB3 chronic myocarditis | oral, 100 mg/kg twice daily, day 5, dosed days 1 to 7, score scale 0 to 7 | direction not given | clinical score | 0.56 |
| CCn1c(-c2nonc2N)nc2c(C#CC(C)(C)O)nc(OC[C@@H](N)c3ccccc3)cc21 | Trypanosoma brucei | – | – | unit not given | reference: pEC50 T. brucei minus pTC50 HepG2 | selectivity | 1.4 |
| O=c1[nH]c2ncsc2c(=O)n1O | Digitaria adscendens | – | – | 750 g/ha, 21 days, post-emergence, glasshouse pot | – | growth inhibition | 0% |

Some of these lines once more:
| SMILES | organism | assay | test system | conditions | scale | quantity | result |
| --- | --- | --- | --- | --- | --- | --- | --- |
| CC1(C)OC[C@@]2(C)[C@H]3CC[C@@H]4CN(Cc5ccc(F)c(Cl)c5)[C@@H](C5=CCOC5=O)C[C@H]4[C@]3(C)CC[C@H]2O1 | Human coronavirus 229E | cytopathic effect | MRC5 | 25 µM, corrected for cytotoxicity | – | inhibition | 20.7% |
| O=[N+]([O-])c1ccc(-c2ccc(/C=N/Nc3nc(N4CCCCC4)nc(N4CCCCC4)n3)o2)cc1 | Mus musculus | gene silencing, high-content imaging | LDR reporter GFP cells | retest run 2 | – | maximal activity | 26% |
| O=C1OC[C@H]2OC(O)[C@H](O)[C@@H](O)[C@@H]2OC(=O)c2cc(O)c(O)c(O)c2-c2c(O)c(O)c3oc(=O)c4c(c(O)c(O)c5oc(=O)c2c3c54)-c2c1cc(O)c(O)c2O (mixture of isomers) | Streptococcus mutans | broth microdilution | – | – | – | MBC/MIC ratio | 2 |
| Cc1ccc(NC(=O)N2Cc3[nH]cnc3C[C@H]2c2nc(-c3ccc4c(c3)OCO4)no2)cc1 | Caenorhabditis elegans | – | N2 | 12.5 µM | – | mean lifespan | 22.5 days |
| OC(Cn1cncn1)(Cn1cncn1)c1ccc(F)cc1F | Aspergillus niger | – | ITCC 7787 | 10 µg/mL | – | zone of inhibition | 23 mm |
| CC1(C)S[C@@H]2[C@H](NC(=O)[C@H](N)c3ccccc3)C(=O)N2[C@H]1C(=O)O | Pseudomonas aeruginosa | – | clinical isolate RKI-No_482/15 | – | – | MIC | > 16 µg/mL |
